Measured values gathered from unrelated publications.
A part holds a random share of what one study measured.

The chains behind the UniProt entries cited, without tags or fusion partners. Where a name states a change or a piece, a line headed by the entry shows the natural chain unless it says otherwise.
UniProt P11362, whole entry, looked up: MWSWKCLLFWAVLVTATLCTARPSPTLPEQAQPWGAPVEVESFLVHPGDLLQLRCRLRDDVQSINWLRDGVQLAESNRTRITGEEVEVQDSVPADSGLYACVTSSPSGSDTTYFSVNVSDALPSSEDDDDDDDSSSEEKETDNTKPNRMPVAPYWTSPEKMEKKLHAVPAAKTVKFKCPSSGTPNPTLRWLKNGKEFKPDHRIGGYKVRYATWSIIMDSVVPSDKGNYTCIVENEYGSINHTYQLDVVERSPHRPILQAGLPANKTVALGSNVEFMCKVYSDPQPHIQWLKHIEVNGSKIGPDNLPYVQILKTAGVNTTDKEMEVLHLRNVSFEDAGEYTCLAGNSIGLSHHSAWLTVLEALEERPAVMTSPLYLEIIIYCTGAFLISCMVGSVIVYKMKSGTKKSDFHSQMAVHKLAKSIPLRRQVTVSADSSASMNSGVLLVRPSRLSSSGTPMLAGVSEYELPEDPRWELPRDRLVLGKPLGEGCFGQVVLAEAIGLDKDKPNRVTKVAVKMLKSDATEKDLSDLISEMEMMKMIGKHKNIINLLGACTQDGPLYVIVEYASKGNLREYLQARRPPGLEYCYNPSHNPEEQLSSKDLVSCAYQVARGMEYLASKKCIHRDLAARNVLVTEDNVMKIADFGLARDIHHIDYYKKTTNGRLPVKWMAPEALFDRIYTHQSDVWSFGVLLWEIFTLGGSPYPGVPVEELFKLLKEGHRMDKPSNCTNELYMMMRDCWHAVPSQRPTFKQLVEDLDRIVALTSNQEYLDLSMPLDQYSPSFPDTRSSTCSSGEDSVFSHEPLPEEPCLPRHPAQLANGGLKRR
UniProt P11362, whole entry V607M, looked up: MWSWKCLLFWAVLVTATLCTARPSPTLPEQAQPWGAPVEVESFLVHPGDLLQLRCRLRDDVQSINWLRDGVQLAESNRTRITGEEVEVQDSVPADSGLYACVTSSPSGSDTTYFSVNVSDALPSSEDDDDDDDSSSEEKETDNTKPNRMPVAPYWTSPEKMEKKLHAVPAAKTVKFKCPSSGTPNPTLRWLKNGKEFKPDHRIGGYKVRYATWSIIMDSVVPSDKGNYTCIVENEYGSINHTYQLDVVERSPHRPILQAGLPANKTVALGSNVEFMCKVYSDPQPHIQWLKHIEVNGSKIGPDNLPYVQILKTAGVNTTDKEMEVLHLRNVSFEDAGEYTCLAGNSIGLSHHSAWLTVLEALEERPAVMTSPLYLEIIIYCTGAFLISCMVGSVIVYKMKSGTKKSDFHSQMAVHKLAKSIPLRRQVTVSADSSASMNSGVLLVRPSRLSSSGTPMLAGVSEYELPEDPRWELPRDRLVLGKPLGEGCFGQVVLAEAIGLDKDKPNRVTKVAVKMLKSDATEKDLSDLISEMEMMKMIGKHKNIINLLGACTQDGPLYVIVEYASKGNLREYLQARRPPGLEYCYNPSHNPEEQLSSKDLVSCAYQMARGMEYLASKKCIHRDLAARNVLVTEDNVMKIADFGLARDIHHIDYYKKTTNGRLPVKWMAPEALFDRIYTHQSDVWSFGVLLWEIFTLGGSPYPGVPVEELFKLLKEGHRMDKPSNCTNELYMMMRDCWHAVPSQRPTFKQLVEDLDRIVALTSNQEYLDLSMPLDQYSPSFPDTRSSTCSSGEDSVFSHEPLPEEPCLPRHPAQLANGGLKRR
UniProt Q13470, whole entry: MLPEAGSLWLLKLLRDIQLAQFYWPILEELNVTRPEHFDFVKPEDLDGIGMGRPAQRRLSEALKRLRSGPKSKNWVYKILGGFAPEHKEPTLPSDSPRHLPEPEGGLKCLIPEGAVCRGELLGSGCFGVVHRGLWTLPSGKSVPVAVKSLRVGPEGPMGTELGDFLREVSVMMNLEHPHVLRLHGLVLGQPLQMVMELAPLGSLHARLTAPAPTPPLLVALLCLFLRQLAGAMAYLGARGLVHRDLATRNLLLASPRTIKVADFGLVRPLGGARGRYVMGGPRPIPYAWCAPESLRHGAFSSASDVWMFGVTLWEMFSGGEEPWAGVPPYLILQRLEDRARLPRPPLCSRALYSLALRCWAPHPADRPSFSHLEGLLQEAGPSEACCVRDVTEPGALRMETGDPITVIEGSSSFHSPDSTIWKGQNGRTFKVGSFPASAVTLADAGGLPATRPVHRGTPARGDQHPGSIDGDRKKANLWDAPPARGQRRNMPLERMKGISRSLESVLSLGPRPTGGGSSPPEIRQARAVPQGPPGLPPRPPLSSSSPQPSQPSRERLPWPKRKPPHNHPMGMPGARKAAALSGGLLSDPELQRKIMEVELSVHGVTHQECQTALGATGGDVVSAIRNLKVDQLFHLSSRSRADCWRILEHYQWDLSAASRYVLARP
UniProt P08069, whole entry, looked up: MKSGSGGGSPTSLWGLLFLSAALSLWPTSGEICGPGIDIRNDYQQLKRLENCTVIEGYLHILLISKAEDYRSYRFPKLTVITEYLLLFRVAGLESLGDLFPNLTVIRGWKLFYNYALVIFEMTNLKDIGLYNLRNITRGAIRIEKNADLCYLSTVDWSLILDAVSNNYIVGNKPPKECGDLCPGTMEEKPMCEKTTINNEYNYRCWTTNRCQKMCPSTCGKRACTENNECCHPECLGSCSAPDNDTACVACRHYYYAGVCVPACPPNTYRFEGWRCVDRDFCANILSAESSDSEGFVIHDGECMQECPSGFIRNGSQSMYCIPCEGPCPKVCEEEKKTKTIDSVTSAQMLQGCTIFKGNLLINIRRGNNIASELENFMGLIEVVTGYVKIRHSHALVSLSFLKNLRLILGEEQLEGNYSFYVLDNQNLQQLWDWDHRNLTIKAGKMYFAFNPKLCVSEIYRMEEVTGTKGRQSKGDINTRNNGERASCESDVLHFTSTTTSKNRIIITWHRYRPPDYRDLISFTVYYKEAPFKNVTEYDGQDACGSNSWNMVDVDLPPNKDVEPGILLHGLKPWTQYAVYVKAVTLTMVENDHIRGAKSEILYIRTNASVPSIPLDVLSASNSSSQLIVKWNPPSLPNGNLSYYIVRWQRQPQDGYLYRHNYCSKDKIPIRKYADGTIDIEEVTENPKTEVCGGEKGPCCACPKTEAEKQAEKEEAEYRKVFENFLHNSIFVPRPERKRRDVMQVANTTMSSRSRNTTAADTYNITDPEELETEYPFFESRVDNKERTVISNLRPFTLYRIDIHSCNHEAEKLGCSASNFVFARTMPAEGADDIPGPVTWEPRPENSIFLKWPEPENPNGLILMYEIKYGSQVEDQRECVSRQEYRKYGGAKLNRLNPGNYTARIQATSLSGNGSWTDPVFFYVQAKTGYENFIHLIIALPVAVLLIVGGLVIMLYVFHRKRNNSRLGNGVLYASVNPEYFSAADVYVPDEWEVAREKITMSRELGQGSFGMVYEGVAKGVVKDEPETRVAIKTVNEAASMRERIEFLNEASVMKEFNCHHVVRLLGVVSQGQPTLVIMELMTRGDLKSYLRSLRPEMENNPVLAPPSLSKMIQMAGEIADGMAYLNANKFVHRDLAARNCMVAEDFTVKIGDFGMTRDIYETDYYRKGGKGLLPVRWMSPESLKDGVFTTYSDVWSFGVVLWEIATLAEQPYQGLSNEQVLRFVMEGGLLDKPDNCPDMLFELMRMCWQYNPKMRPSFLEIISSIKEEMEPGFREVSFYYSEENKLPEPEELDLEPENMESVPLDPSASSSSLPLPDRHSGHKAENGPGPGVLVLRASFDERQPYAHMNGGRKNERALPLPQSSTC
UniProt P04150, whole entry: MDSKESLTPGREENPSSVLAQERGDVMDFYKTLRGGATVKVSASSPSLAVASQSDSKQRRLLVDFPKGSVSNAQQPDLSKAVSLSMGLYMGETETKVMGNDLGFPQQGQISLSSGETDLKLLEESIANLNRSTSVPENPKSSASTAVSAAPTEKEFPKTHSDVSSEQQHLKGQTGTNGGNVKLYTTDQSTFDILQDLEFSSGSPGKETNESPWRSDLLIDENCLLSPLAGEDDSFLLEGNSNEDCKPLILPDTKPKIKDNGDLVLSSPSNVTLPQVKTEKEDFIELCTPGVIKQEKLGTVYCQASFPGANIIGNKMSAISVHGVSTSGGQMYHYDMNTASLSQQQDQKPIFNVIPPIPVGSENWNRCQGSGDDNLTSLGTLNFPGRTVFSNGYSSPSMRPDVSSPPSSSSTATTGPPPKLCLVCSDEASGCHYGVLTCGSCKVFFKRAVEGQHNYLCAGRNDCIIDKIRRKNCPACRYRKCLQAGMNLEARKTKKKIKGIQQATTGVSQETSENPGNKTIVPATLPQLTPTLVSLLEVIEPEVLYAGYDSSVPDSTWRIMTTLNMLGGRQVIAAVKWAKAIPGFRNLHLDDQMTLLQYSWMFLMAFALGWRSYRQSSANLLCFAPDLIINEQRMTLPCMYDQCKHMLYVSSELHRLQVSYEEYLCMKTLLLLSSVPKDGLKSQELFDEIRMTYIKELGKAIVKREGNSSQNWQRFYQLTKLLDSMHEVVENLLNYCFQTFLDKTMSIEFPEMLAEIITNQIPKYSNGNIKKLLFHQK
UniProt P10586, whole entry, looked up: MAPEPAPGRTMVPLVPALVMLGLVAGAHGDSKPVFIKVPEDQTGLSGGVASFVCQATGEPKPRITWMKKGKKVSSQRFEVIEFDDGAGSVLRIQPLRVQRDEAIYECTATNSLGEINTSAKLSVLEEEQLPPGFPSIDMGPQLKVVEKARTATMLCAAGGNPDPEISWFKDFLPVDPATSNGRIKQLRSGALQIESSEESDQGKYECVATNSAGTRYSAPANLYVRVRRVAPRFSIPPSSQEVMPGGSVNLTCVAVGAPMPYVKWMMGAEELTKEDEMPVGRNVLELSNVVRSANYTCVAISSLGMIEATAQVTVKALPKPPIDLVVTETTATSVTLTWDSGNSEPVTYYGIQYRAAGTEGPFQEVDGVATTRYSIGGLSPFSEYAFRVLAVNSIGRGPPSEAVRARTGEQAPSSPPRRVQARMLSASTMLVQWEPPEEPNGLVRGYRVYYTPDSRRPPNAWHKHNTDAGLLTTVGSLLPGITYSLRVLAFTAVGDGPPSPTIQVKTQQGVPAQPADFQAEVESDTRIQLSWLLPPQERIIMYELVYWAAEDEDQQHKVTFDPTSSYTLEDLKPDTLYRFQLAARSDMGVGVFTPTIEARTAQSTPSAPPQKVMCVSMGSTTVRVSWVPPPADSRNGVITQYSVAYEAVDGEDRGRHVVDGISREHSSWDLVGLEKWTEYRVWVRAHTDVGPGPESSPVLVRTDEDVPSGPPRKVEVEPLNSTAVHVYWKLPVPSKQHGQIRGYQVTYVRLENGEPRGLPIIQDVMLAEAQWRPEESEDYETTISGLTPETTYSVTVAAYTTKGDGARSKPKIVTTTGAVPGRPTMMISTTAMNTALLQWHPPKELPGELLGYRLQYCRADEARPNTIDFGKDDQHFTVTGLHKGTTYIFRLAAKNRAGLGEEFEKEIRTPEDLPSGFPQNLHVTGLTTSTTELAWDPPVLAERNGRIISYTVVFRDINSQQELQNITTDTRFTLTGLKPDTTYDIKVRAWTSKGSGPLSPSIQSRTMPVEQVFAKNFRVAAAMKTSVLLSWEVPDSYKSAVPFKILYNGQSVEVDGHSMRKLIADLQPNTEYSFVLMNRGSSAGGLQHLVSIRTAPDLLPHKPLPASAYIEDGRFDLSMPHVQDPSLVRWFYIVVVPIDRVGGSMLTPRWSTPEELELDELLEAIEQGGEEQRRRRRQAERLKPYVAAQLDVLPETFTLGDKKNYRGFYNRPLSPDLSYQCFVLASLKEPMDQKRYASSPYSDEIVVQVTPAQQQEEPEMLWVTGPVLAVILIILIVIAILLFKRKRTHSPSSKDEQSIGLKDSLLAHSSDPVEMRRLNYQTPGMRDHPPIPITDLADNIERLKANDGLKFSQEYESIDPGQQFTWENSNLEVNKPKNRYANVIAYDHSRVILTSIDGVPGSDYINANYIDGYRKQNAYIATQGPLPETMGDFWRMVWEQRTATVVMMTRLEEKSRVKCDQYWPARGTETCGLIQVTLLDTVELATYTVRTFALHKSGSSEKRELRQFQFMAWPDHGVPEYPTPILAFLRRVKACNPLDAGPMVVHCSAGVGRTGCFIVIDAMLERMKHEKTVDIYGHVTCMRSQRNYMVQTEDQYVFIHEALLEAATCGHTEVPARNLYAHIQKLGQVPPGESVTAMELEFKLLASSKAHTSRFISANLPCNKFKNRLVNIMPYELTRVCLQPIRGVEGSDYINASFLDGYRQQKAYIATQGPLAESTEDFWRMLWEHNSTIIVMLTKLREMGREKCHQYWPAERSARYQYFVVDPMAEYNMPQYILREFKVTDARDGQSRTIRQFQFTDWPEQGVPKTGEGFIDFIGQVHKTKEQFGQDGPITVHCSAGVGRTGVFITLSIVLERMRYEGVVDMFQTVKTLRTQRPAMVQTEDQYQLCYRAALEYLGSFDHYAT

Series 1 — action: inhibitor; matrix: human cells; concentration: 5 µM; measurement: log2 fold change
SMILES: CCN1CCN(Cc2ccc(NC(=O)c3ccc(C)c(/C=C/c4cnc5[nH]ccc5c4OC)c3)cc2C(F)(F)F)CC1
MAP4K2 (Homo sapiens, UniProt Q12851); kinome profiling; baseline: vehicle: -0.045
Fibroblast growth factor receptor 1, V607M; with CDC37 (FGFR1, Homo sapiens, UniProt P11362, V607M); cell-based kinome screen; Kallmann syndrome variant; baseline: untreated: -0.738
TNK1 (Homo sapiens, UniProt Q13470); kinase-CDC37 interaction; baseline: vehicle: 0.07
IGF1R (Homo sapiens, UniProt P08069); kinome profiling; baseline: vehicle: 0.496

Mixed results
NR3C1: Glucocorticoid receptor (NR3C1, Homo sapiens, UniProt P04150)
COc1ccc2c(c1)CN([C@H](C)[C@@H]1CC[C@@H]3[C@H]4CC[C@H]5C[C@@H](O)CC[C@@]5(C)[C@H]4CC[C@]31C)CO2
EC50 (NR3C1; nuclear translocation, agonist, enzyme fragment complementation): > 9 µM

COc1cc(CC(=O)NCC(NC(=O)C(CCCNC(=O)c2cccc(I)c2)NC(=O)C(Cc2ccc(C(F)(F)P(=O)(O)O)cc2)NC(=O)c2ccc(C)c(Br)c2)C(N)=O)ccc1O (centres unmarked)
inhibition (Receptor-type tyrosine-protein phosphatase F (Homo sapiens, UniProt P10586); enzyme activity; 10 µM): no inhibition

C[C@@]12CC[C@@H]3[C@H](CCC4=CC(=O)CC[C@]43C)[C@@H]1CC[C@@H]2C(=O)Cn1cnc2c(=S)nc[nH]c21
EC50 (NR3C1; nuclear translocation, agonist, enzyme fragment complementation): > 9 µM

CC#C/C(=N\OC[C@H]1COCCN1)c1ccc2ncnc(Nc3ccc(OCc4cccc(F)c4)c(Cl)c3)c2c1
inhibition (FGFR1 (Homo sapiens, UniProt P11362); kinase activity; 10 µM): 0.9%

For quick reference, copied from above (series 1):
IGF1R (Homo sapiens, UniProt P08069); kinome profiling; baseline: vehicle: 0.496
